Experimental data from different studies.
Every numbered part comes from another study and shows a few of its results, in no order.

Series 1
Target: Prothrombin, mature alpha-thrombin (F2, Homo sapiens, UniProt P00734)
Method: aptamer microarray, sandwich
Molecule type: DNA with 2'F-ANA
Matrix: in vitro
Tested at: 200 nM
Notes: whole 15-mer aptamer, many near background
Together with: Cy3 exosite-II aptamer, 400 nM
Direction: higher = stronger binding
Oligonucleotide: GGTTGGTGTGGTTGG
`2'F-ANA at 1 9 10 14 15` — result for “mean fluorescence intensity”: 47.7 a.u.
For `2'F-ANA at 1 2 3 5 7 8 12 14 15`, “mean fluorescence intensity” read 46.3 a.u.
`2'F-ANA at 2 5 6 8 9 12 14` — result for “mean fluorescence intensity”: 49.5 a.u.
`2'F-ANA at 5 8 13`: “mean fluorescence intensity” 60.7 a.u.
`2'F-ANA at 2 3 5 6 7 8`: “mean fluorescence intensity” 118 a.u.
`2'F-ANA at 1 3 4 6 7 8 9 11 15` — result for “mean fluorescence intensity”: 155 a.u.
For `2'F-ANA at 1 2 4 5 6 8 11 15`, “mean fluorescence intensity” read 53.2 a.u.

Series 2
Target: Histone acetyltransferase KAT6A, winged helix 2, GST fusion (KAT6A, Homo sapiens, UniProt Q92794, residues 85-181)
Method: protein binding microarray
Molecule type: double-stranded DNA, one strand shown
Matrix: in vitro
Tested at: not given
Notes: 8-mer, flanks averaged, mean of 2 arrays, mostly near background
Relative to: not given
Direction: higher = stronger binding
Target sequence (chain): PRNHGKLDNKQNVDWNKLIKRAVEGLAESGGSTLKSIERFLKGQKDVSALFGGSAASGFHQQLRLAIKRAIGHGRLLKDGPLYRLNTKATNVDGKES
For `CACACCTA`, the E-score was -0.211.
With `TAAATCGA` the E-score was 0.0526.
`GTGGTCGA` has an E-score of -0.112.
`CACAGGAA` has an E-score of -0.0317.
With `TGCTCAAA` the E-score was 0.124.
With `AGTGTCAA` the E-score was -0.00626.
With `ACGCGGTG` the E-score was -0.0403.
For `ATATTGGC`, the E-score was -0.123.
With `CGTTTCTC` the E-score was 0.0473.
The E-score of `CCGAAATA` is reported as 0.0484.

Series 3
Target: Sal-like protein 4, full length isoform B (SALL4, Homo sapiens, UniProt Q9UJQ4-2, residues 1-616)
Method: universal PBM
Molecule type: double-stranded DNA, one strand shown
Matrix: in vitro
Tested at: not given
Notes: 8-mer, flanks averaged, mean of replicates
Direction: higher = stronger binding
Construct (chain): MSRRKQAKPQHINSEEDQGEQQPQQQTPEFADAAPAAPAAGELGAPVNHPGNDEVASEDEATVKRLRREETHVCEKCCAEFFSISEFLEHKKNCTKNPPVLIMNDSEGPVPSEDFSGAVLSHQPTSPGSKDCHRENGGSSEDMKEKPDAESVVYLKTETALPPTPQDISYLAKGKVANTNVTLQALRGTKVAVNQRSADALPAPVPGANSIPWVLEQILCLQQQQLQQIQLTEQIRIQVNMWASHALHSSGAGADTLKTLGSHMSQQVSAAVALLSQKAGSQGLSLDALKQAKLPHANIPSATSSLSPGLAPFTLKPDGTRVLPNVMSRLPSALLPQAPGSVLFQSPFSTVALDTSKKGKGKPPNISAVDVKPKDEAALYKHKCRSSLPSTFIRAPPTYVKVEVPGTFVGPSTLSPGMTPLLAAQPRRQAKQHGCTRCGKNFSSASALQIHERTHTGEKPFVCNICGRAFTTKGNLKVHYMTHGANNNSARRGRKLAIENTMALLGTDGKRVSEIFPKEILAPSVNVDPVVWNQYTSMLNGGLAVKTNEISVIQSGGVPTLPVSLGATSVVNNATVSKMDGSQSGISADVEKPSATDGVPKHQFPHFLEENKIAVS
The E-score of `GCTCTCGA` is reported as -0.166.
With `CCGTGCCG` the E-score was -0.233.
The E-score of `ACGTTCCG` is reported as -0.233.
For `AGGTGCTC`, the E-score was -0.27.
For `GTTTTGCA`, the E-score was 0.0892.

Mixed results
With `PhoQ, residues 284 288 289 292 302 303 SLKLQV` the fold induction was 8.41 (PhoP, residues 12 14 15 18 19 NFCKL (Escherichia coli, UniProt P23836); Sort-seq, measured: YFP reporter; E. coli; PhoQ-PhoP variant library, together with: 10 µM Mg2+; relative to: high Mg2+ state, higher = stronger signaling).

Some of these lines once more (series 1):
For `2'F-ANA at 1 2 4 5 6 8 11 15`, “mean fluorescence intensity” read 53.2 a.u.
